{"data": "Measured values pooled from the literature", "note": "Compare with care: the assays were run in different laboratories. ± gives the spread as reported."}
{"SMILES": "CC(=O)O[C@H]1C(=O)[C@@]2(C)[C@H]([C@H](OC(=O)c3ccccc3)[C@]3(O)C[C@H](OC(=O)[C@H](O)[C@@H](NC(=O)c4ccccc4)c4ccccc4)C(C)=C1C3(C)C)[C@]1(OC(C)=O)CO[C@@H]1C[C@@H]2O", "test system": "C57BL/6J mice Lewis lung carcinoma", "conditions": "intravenous, 25 mg/kg, day 11", "scale": "reference: vehicle", "tumour growth inhibition": "75.3%"}
{"SMILES": "C=CC(=O)Nc1cc(Nc2ncc(C(=O)OC(C)C)c(-c3cn(C)c4ccccc34)n2)c(OC)cc1N(C)CCN(C)C", "test system": "NCI-H2073 parental xenograft (EGFR wild-type), BALB/c nude mice", "conditions": "30 mg/kg once daily, 21 days", "tumour growth inhibition": "105%"}
{"SMILES": "CC(=O)O[C@@]12CO[C@@H]1C[C@H](O)[C@@]1(C)C(=O)[C@H](O)C3=C(C)[C@@H](OC(=O)[C@H](O)[C@@H](NC(=O)OC(C)(C)C)c4ccccc4)C[C@@](O)([C@@H](OC(=O)c4ccccc4)[C@H]21)C3(C)C", "test system": "mice, MDA-MB-231 xenograft", "conditions": "dose not given, 19 days", "scale": "reference: vehicle", "tumour growth inhibition": "64%"}
{"SMILES": "CCNc1nc2c(c(N3CC(=O)Nc4cc(OC)ccc43)n1)CCC2", "test system": "mice, A-375/TxR xenograft", "conditions": "intravenous, 2 mg/kg twice weekly, 3 weeks", "tumour growth inhibition": "62.3%"}
{"SMILES": "C[C@@H]1COCCN1c1cc([C@]2(O)C[C@H]3CC[C@@H](C2)O3)c2cnn(-c3cc[nH]n3)c2n1", "test system": "LoVo xenograft mice", "conditions": "15 mg/kg once daily for 7 days, day 17", "tumour growth inhibition": "75.7 ± 5.4%"}
{"SMILES": "NCc1cc2c(cc1F)C(=O)N(C1CCC(=O)NC1=O)C2 (centres unmarked)", "test system": "mice, HCC PDX models", "conditions": "oral, 100 mg/kg twice daily, 4 of 10 models", "tumour growth inhibition": "> 50%"}
{"SMILES": "CCCCC(=O)Nc1ccc(-c2ccc3ncn(CCC)c(=O)c3c2)cn1", "test system": "mice, HCC827 xenograft", "conditions": "oral, 10 mg/kg daily, six days per week, three weeks", "scale": "reference: vehicle", "tumour growth inhibition": "46.5%"}
{"SMILES": "C=CCn1c(=O)c2cnc(Nc3ccc(N4CCN(C)CC4)cc3)nc2n1-c1ccc2c(n1)[C@@](O)(CC)CC2", "test system": "PC-9 xenograft, CB17 SCID mice", "conditions": "oral, 80 mg/kg, day 18, once daily x 19", "tumour growth inhibition": "68.9%"}
{"note": "Repeated from above:"}
{"SMILES": "CCCCC(=O)Nc1ccc(-c2ccc3ncn(CCC)c(=O)c3c2)cn1", "test system": "mice, HCC827 xenograft", "conditions": "oral, 10 mg/kg daily, six days per week, three weeks", "scale": "reference: vehicle", "tumour growth inhibition": "46.5%"}
